Published values gathered from unrelated publications.
Several values in a cell are separate wells, animals, samples, runs or records. ± gives the spread as reported.

CC(=O)c1c(C)c2cnc(Nc3ccc(N4CCNCC4)cn3)nc2n(C2CCCC2)c1=O  IC50 (NCI-H292; cell growth or viability; 6 days): 0.85 µM
O=C(CSc1nnc(-c2ccc(NC(=O)c3cccnc3)cc2)o1)Nc1ccc(F)cc1  IC50 (RAW264.7; TNF-α release, inhibitor, ELISA; LPS-stimulated): 3.37 µM
O=C(NCCCl)Nc1ccc(S(=O)(=O)Oc2cccnc2I)cc1  IC50 (MOLM-13; cell growth or viability, MTT; 48 h): 1.5 µM
Cc1c(C)c2c(c(C)c1O)CCC(C)(C(=O)O)O2 (stereo not shown)  IC50 (HL-60; reactive oxygen species, inhibitor, fluorescence): 0.11 µg/mL
COc1ccc(Nc2ncnc(-c3cccnc3Nc3cc(NC(=O)c4ccc(CN5CCN(C)CC5)cc4)ccc3C)n2)cc1  IC50 (Ba/F3 expressing BCR-ABL T315I; cell proliferation, inhibitor, trypan blue exclusion; 48 h, without IL-3): < 0.5 µM
O=C1C(SCCO)=C(SCCO)C(=O)c2ccccc21  IC50 (hiPSC hepatic differentiation phase I; cell viability, CCK-8; 48 h): 11.3 ± 1.56 µM
Cc1cc(C(=O)/C(=C\c2ccc(Br)cc2)c2ccc(Br)cc2)c(C(=O)N2CCCCC2)c(=O)[nH]1  IC50 (A-375; cell proliferation, MTT; 72 h): > 10 µM
CC(C)C[C@H]1NC(=O)[C@H](CC(=O)O)NC(=O)CNC(=O)[C@H](CCCNC(=N)N)NC(=O)[C@H](C)NC1=O  IC50 (WM-115; WM-115 cell adhesion, inhibitor; 1 h, together with: immobilized CagL^E90A): 0.88 µM
CC(=O)c1ccc(NC(=O)CSc2nnc(-c3ccc(NC(=O)c4cccnc4)cc3)o2)cc1  IC50 (RAW264.7; IL-6 release, inhibitor, ELISA; LPS-stimulated): 1.4 µM
CCNC(=O)Nc1ccc(S(=O)(=O)Oc2cccnc2Br)cc1  IC50 (MOLM-13; cell growth or viability, MTT; 48 h): 1.9 µM
Nn1c(SCC(=O)Nc2cccc(Br)c2)nnc1-c1ccc(NC(=O)c2cccnc2)cc1  IC50 (RAW264.7; NO release, inhibitor, Griess; LPS-stimulated): 92.5 µM
O=c1[nH]c2ccccc2nc1/C=C/c1ccccc1F  IC50 (HeLa 229; cell growth or viability, MTT; 72 h): > 50 µM
c1cc(-c2cnn3cc(-c4ccc(OCCN5CCCCC5)cc4)cnc23)ccn1  IC50 (mouse PASMC; Smad1/5/8 phosphorylation, inhibitor, immunoblotting; together with: BMP4 10 ng/mL): ~0.4 µM
O=c1c(/C=C/c2ccccc2)nc2ccccc2n1Cc1ccccc1  IC50 (HeLa 229; cell growth or viability, MTT; 72 h): > 50 µM
CCCCCCCCCCCCCCCCCC(=O)OC[C@H](COP(=O)([O-])OCC[N+](C)(C)C)OC(=O)Cc1c(C)n(C(=O)c2ccc(Cl)cc2)c2ccc(OC)cc12  IC50 (MCF-10A; cell growth or viability, SRB; 72 h): 540 µM
O=c1c(/C=C/c2ccccc2F)nc2ccccc2n1Cc1ccccc1  IC50 (HeLa 229; cell growth or viability, MTT; 72 h): > 50 µM
O=C(Nc1ccc(-c2n[nH]c(=S)n2N=Cc2c[nH]c3ccccc23)cc1)c1cccnc1  IC50 (RAW264.7; reactive oxygen species, inhibitor, fluorescence; LPS-stimulated): 1.78 µM
CC(=O)O[C@H]1C(=O)[C@@]2(C)[C@H]([C@H](OC(=O)c3ccccc3)[C@]3(O)C[C@H](OC(=O)[C@H](O)[C@@H](NC(=O)c4ccccc4)c4ccccc4)C(C)=C1C3(C)C)[C@]1(OC(C)=O)CO[C@@H]1C[C@@H]2O  IC50 (C26, HepG2, MCF7; cytotoxicity, MTT; range over three cell lines): 2.85 to 5.75 µM
O=c1[nH]c2ccccc2nc1/C=C/c1ccc(C(F)(F)F)cc1  IC50 (HeLa 229; cell growth or viability, MTT; 72 h): > 50 µM
CC(NCCc1ccc(O)cc1)C(O)c1ccc(O)cc1 (stereo not shown)  IC50 (THP-1; TNF-alpha production, inhibitor; together with: LPS): 3.5 µM
CCN1C(=O)C(n2nc(-c3c(O)c4ccccc4oc3=O)cc2-c2ccc(F)cc2)c2cc(Cl)ccc21 (stereo not shown)  IC50 (A-375; cell growth or viability, SRB; 72 h): 82.6 µM
O=C1C(=Cc2ccccc2)CN(C(=O)c2cccc(C(=O)N3CC(=Cc4ccccc4)C(=O)C(=Cc4ccccc4)C3)c2)CC1=Cc1ccccc1  IC50 (CEM T-lymphocytes; cell proliferation; 3 d): 36 ± 7.6 µM
C[C@H]1CN(C2COC2)CCN1c1ccc(Nc2cc(-c3ccnc(N4CCn5c(cc6c5CC(C)(C)C6)C4=O)c3CO)cn(C)c2=O)nc1  IC50 (Ramos; CD69 expression; BTK signalling): 0.0029 µM
Cc1cc(O)c2c(c1)C(=O)c1cc(O)cc(O)c1C2=O  IC50 (U-937; cell growth or viability, ATP luminescence; 24 h): 7 µM
CCCCCOC(=O)Nc1nc(=O)n([C@@H]2O[C@H](C)[C@@H](O)[C@H]2O)cc1F  IC50 (BXPC-3; cell growth or viability, MTT; 72 h): > 200 µM
Oc1ccc(/C=C/c2ccccc2)cc1O  IC50 (HL-60; reactive oxygen species, inhibitor, fluorescence): 20 µg/mL
CC(=O)c1ccc(NC(=O)CSc2nnc(-c3ccc(NC(=O)c4cccnc4)cc3)n2N)cc1  IC50 (RAW264.7; NO release, inhibitor, Griess; LPS-stimulated): 1.22 µM
CC1(C)CCCC(C)(C2CCC3(C)C2C(O)CC2C4(C)CCC(OC(=O)NC5CCCCC5)C(C)(C)C4C(OC(=O)NC4CCCCC4)CC23C)O1 (stereo not shown)  IC50 (Hep3B; HRE reporter gene, inhibitor; 24 h, hypoxia): 14.8 µM
CC(=O)OC[C@H]1O[C@@H]([S-])[C@H](OC(C)=O)[C@@H](OC(C)=O)[C@@H]1OC(C)=O.CCP(CC)CC.[Au+]  IC50 (GIST882; cell growth or viability, resazurin; 72 h): 0.38 µM
O=C1C(n2nc(-c3c(O)c4ccccc4oc3=O)cc2-c2ccc(Br)cc2)c2ccccc2N1Cc1ccccc1 (stereo not shown)  IC50 (A-375; cell growth or viability, SRB; 72 h): 4.84 µM
O=C(O)c1cc(Oc2ccc([N+](=O)[O-])cc2)cc(Oc2ccc([N+](=O)[O-])cc2)c1  IC50 (H4 neuroglioma cells expressing APP K595N/M596L; Aβ42 secretion, inhibitor, MSD immunoassay, refers to: Aβ42; 24 h, 50% reduction level): 50 to 100 µM
Cc1ncsc1-c1ccc(CNC(=O)[C@@H]2C[C@@H](O)CN2C(=O)[C@@H](NC(=O)C2(F)CC2)C(C)(C)C)c(OCCOc2ccc(CN3CCN(c4cc(-c5ccccc5O)nnc4N)CC3)cc2)c1  IC50 (NCI-H1568 SMARCA4-deficient; cell growth, CellTiter-Glo; 168 h): 0.068 µM
Cc1ccc(NC(=O)CSc2nnc(-c3ccc(NC(=O)c4cccnc4)cc3)n2N)cc1  IC50 (RAW264.7; IL-6 release, inhibitor, ELISA; LPS-stimulated): 11.1 µM
Cc1ccc(C(C)C)cc1.Cc1ccc(C(C)C)cc1.[Cl][Ru][Cl].[Cl][Ru][Cl]  IC50 (WM-115; cell growth or viability, MTT; 48 h): > 1000 µM
Cc1ccc(C=Nn2c(-c3ccc(NC(=O)c4cccnc4)cc3)n[nH]c2=S)cc1  IC50 (RAW264.7; IL-6 release, inhibitor, ELISA; LPS-stimulated): 0.96 µM
CC(C(=O)[O-])C(=O)[O-].CC(C(=O)[O-])C(=O)[O-].NCCN.[Pt+4]  IC50 (SW480; cell viability, MTT; 96 h): > 200 µM
CC(=O)c1ccc(NC(=O)CSc2nnc(-c3n[nH]c(=O)c4ccccc34)o2)cc1  IC50 (WI-38; cell growth or viability, MTT; 48 h): 35.4 µM
O=c1cc(-c2ccccc2)oc2cc(O)cc(O)c12  IC50 (HL-60; cell growth or viability, ATP luminescence; 24 h): 328 µM
Cc1ccc(-c2cc(C(F)(F)F)nn2-c2ccc(S(N)(=O)=O)cc2)cc1  IC50 (RAW264.7; TNF-α release, inhibitor, ELISA; LPS-stimulated): 5.55 µM
CC(C)=CCc1c(O)cc(/C=C/c2ccccc2)cc1O  IC50 (HL-60; ROS generation, inhibitor, DCFH-DA; together with: PMA): > 25 µg/mL
CCCS(=O)(=O)Nc1ccc(F)c(C(=O)c2c[nH]c3ncc(-c4ccc(Cl)cc4)cc23)c1F  IC50 (A-375 inducible BRAF V600E high; ERK signalling, Western blot; 1 h, together with: 0.2 µg/mL doxycycline): > 10 µM
C=CC(=O)N1CCC[C@@H](n2nc(-c3ccc(Oc4ccccc4)cc3)c3c(N)ncnc32)C1  IC50 (SU-DHL-6; cell growth or viability, CCK-8; 72 h): 2.43 µM
Cn1cc(Nc2nccc(-c3ccc4c(c3)CN(C3COC3)CC[C@H]4NC(=O)c3cn(C(C)(C)C)nn3)n2)cn1  IC50 (Ramos; PLCγ2 Y1217 phosphorylation; together with: anti-IgM): 0.0069 µM
CC(C)Oc1ccc(C(=O)Cn2ccnc2)cc1-n1c(CN2CCN(C(=O)COc3ccc(Cl)cc3)CC2)nc2ccccc2c1=O  IC50 (SU-DHL-6; cell viability, CellTiter-Glo; 24 h): < 0.1 µM
O=C1Nc2ccc(Br)cc2C1n1nc(-c2c(O)c3ccccc3oc2=O)cc1-c1ccc(Cl)cc1 (stereo not shown)  IC50 (A-375; cell growth or viability, SRB; 72 h): 6.18 µM
COc1ccc(/C=C\c2cc(OC)c(OC)c(OC)c2)cc1O  IC50 (HeLa transfected with βIII-tubulin; cell growth, SRB): 0.0052 ± 0.0004 µM
O=C(NCCCl)Nc1ccc(S(=O)(=O)Oc2cnccc2I)cc1  IC50 (MOLM-13; cell growth or viability, MTT; 48 h): 0.6 µM
O=c1c2ccccc2c(-c2nnc(SCNc3cccnc3)o2)nn1CNc1cccnc1  IC50 (WI-38; cell growth or viability, MTT; 48 h): 58.1 µM
Cc1ccc(C#Cc2cccc(-c3nn(-c4nc(C(=O)O)cs4)c(C(C)C4CC4)c3Cc3ccc(S(N)(=O)=O)c(F)c3)c2)s1 (stereo not shown)  IC50 (MIA PaCa-2; cell growth or viability; 48 h): 9.35 µM
O=c1[nH]c2ccccc2nc1/C=C/c1cccs1  IC50 (HeLa 229; cell growth or viability, MTT; 72 h): 46.2 µM
C=CCc1ccc(OCc2nn(CN3CCOCC3)c(=S)o2)c(OC)c1  IC50 (MCF7, SK-OV-3, PC-3; cell growth, MTT): ≤ 10 µM
CCCNC(=O)Nc1ccc(S(=O)(=O)Oc2cccnc2Br)cc1  IC50 (MOLM-13; cell growth or viability, MTT; 48 h): 5 µM
COc1ccc(/C=C/c2cc(O)cc(O[C@@H]3O[C@H](CO)[C@@H](O)[C@H](O)[C@H]3O)c2)cc1O  IC50 (HL-60; reactive oxygen species, inhibitor, fluorescence): 0.55 µg/mL
CNC(=O)c1cc(Oc2ccc(NC(=O)Nc3ccc(Cl)c(C(F)(F)F)c3)cc2)ccn1  IC50 (A-375; cell growth or viability, SRB; 72 h): 3.2 µM
O=c1c2ccccc2c(-c2nnc(SCNc3ccc(Cl)cc3)o2)nn1CNc1ccc(Cl)cc1  IC50 (WI-38; cell growth or viability, MTT; 48 h): 51.4 µM
CCCCCCCC(=O)N[C@H](C(=O)N[C@@H](CCC(N)=O)C(=O)N[C@H](C(=O)N[C@H](CCC(N)=O)C(=O)N[C@H](C(=O)N[C@H](C=O)Cc1ccccc1)C(C)C)[C@@H](C)CC)[C@@H](C)CC  IC50 (FR4; cell growth): 35 µM and ~30 µM
CCN1C(=O)C(n2nc(-c3c(O)c4ccccc4oc3=O)cc2-c2ccc(Cl)cc2)c2ccccc21 (stereo not shown)  IC50 (A-375; cell growth or viability, SRB; 72 h): 33.8 µM
CCCCCC(O)CCCO (stereo not shown)  IC50 (SH-SY5Y; cell growth or viability, SRB; 24 h): > 1000 µM

Repeated from above:
CC1(C)CCCC(C)(C2CCC3(C)C2C(O)CC2C4(C)CCC(OC(=O)NC5CCCCC5)C(C)(C)C4C(OC(=O)NC4CCCCC4)CC23C)O1 (stereo not shown)  IC50 (Hep3B; HRE reporter gene, inhibitor; 24 h, hypoxia): 14.8 µM
CC(=O)OC[C@H]1O[C@@H]([S-])[C@H](OC(C)=O)[C@@H](OC(C)=O)[C@@H]1OC(C)=O.CCP(CC)CC.[Au+]  IC50 (GIST882; cell growth or viability, resazurin; 72 h): 0.38 µM
O=C1C(n2nc(-c3c(O)c4ccccc4oc3=O)cc2-c2ccc(Br)cc2)c2ccccc2N1Cc1ccccc1 (stereo not shown)  IC50 (A-375; cell growth or viability, SRB; 72 h): 4.84 µM
O=C(O)c1cc(Oc2ccc([N+](=O)[O-])cc2)cc(Oc2ccc([N+](=O)[O-])cc2)c1  IC50 (H4 neuroglioma cells expressing APP K595N/M596L; Aβ42 secretion, inhibitor, MSD immunoassay, refers to: Aβ42; 24 h, 50% reduction level): 50 to 100 µM
Cc1ncsc1-c1ccc(CNC(=O)[C@@H]2C[C@@H](O)CN2C(=O)[C@@H](NC(=O)C2(F)CC2)C(C)(C)C)c(OCCOc2ccc(CN3CCN(c4cc(-c5ccccc5O)nnc4N)CC3)cc2)c1  IC50 (NCI-H1568 SMARCA4-deficient; cell growth, CellTiter-Glo; 168 h): 0.068 µM
Cc1ccc(NC(=O)CSc2nnc(-c3ccc(NC(=O)c4cccnc4)cc3)n2N)cc1  IC50 (RAW264.7; IL-6 release, inhibitor, ELISA; LPS-stimulated): 11.1 µM
